Published values gathered from unrelated publications.
Numbered parts are unrelated; each lists some results of a single study.
Sequence of UniProt O15264 (whole entry, looked up): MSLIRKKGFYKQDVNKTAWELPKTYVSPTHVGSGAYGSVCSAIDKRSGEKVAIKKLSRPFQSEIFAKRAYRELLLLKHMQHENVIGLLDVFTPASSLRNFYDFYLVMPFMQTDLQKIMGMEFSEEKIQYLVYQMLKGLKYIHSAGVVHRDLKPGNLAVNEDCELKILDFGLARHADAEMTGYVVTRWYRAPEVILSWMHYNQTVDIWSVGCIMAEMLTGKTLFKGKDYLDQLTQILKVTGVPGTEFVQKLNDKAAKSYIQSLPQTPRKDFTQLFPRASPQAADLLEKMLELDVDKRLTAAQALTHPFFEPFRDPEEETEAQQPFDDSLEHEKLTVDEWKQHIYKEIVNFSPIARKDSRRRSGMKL
Sequence of UniProt Q9NQU5 (whole entry, looked up): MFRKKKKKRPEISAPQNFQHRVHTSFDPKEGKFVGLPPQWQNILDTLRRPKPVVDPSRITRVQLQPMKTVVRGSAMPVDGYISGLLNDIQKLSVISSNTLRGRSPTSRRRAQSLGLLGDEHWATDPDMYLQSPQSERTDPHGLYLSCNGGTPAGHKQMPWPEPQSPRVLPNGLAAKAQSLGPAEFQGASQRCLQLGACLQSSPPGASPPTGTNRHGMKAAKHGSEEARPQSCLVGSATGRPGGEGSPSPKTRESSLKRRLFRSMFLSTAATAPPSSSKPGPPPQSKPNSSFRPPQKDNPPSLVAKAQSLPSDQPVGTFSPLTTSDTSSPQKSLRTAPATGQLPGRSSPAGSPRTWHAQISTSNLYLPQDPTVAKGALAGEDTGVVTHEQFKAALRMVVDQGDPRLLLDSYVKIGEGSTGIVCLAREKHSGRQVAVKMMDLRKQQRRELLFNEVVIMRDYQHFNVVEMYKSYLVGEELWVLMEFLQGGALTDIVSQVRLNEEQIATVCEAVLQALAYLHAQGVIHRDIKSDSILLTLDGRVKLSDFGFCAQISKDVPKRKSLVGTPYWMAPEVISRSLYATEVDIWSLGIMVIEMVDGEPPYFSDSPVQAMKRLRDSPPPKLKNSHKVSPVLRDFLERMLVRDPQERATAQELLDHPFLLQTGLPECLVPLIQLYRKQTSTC
Sequence of UniProt P54760 (whole entry, looked up): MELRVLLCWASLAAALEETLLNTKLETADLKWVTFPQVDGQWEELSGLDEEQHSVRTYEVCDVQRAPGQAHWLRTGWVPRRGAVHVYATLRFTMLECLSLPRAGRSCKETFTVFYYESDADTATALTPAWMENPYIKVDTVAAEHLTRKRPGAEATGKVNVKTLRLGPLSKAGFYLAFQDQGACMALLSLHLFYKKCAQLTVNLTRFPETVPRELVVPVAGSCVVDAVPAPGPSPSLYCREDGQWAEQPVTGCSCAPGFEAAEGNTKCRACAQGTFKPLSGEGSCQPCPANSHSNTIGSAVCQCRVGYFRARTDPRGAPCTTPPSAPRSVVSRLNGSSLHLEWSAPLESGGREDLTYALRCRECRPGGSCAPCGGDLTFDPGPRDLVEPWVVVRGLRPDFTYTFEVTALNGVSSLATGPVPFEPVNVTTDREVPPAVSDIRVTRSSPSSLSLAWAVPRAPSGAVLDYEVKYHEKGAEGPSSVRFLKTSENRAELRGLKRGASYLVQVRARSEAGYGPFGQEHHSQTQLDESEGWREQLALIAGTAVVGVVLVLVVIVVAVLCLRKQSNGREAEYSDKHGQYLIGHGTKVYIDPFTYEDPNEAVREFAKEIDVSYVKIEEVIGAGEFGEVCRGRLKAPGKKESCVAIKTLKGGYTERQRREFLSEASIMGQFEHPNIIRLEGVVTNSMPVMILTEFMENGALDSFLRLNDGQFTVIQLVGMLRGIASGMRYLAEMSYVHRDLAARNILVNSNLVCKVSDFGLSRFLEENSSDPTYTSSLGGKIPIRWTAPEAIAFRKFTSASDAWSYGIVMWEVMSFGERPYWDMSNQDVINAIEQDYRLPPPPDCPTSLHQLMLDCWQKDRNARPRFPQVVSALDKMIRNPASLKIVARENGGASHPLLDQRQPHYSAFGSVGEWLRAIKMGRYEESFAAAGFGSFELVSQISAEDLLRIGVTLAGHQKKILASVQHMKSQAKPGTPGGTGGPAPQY
Sequence of UniProt Q8WTQ7 (whole entry, looked up): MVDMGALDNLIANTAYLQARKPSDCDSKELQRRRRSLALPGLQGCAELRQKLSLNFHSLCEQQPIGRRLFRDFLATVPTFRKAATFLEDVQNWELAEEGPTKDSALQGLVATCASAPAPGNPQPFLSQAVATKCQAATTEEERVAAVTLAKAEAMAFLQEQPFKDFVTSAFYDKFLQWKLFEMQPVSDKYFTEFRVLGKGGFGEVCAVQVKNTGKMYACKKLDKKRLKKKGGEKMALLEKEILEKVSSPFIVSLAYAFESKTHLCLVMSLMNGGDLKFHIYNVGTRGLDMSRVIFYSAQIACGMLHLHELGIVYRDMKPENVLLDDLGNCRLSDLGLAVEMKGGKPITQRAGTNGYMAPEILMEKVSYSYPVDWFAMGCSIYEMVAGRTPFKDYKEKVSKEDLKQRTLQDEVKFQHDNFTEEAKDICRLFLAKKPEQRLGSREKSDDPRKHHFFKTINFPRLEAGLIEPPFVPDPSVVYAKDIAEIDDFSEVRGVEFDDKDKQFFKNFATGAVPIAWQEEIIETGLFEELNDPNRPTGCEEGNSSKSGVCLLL
Sequence of UniProt Q96D53 (whole entry, looked up): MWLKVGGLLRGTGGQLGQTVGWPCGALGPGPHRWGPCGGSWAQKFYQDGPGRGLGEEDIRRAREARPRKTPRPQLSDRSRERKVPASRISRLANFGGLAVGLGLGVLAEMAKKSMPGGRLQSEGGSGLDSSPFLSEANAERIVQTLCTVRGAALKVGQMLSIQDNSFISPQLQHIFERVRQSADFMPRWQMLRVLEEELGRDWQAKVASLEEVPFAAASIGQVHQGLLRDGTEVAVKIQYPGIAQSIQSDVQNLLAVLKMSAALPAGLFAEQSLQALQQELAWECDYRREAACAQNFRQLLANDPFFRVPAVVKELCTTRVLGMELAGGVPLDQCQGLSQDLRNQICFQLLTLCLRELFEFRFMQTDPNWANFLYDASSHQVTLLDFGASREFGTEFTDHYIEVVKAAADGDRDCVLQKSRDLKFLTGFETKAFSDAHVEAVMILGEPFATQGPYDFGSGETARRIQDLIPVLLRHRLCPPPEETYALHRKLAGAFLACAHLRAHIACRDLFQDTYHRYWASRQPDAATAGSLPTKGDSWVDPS

Block 1
Species: mouse
Matrix: microsomes or S9
Tested at: 2 µM
Time: 0.5 h
SMILES | remaining compound [%]
CC(NCc1cccc(OCc2cccnc2)c1)c1ccc2c(c1)OCCCO2 (centres unmarked) | 0.0217
Cc1ccc(Cl)c(OCC(O)Cn2cnc3cc(C)c(C)cc32)c1 (centres unmarked) | < 1
COc1ccc(C(=O)C2=CN(c3ccc(N(C)C)cc3)c3ccccc3S2(=O)=O)cc1OC | 15
Cc1cc(C(=O)NC2CCCc3c2[nH]c2ccccc32)c2c(C)noc2n1 (centres unmarked) | 58.3
CCOC(=O)c1c(-c2ccccc2)n(C#Cc2ccccc2F)c2ccccc12 | 62.7
O=C(O)c1ccc(CN(c2ccccn2)S(=O)(=O)c2ccccc2)cc1 | 95.8
OC/C=C/Cc1cc2cc(Cl)ccc2n1-c1ncccn1 | 23.3
CCOC1CC(N(C)C(=O)COCc2ocnc2C(=O)O)C1(C)C (centres unmarked) | > 100
CCOc1cccc2c(C)nc(Nc3nc(=O)c4c([nH]3)CCCC4)nc12 | 7.88

Block 2
Structure (SMILES): COc1cc(C(=O)N2CCC(N3CCN(C)CC3)CC2)ccc1Nc1ncc2c(n1)N(C)c1ccccc1C(=O)N2C
target or system | test | test system | conditions | inhibition
ILK (mouse) | probe labelling, KiNativ, item: WQGNDIVVkVLK peptide, LYS1 site | brain tissue lysate (mouse) | 1 µM, with: ADP acyl-phosphate probe | 11.1%
MAP/microtubule affinity-regulating kinase 4 (Mus musculus, UniProt Q8CIP4) | KiNativ profiling | mouse brain lysate | 0.1 µM, LYS1 site, with: ATP acyl phosphate probe | -8%
PIK3CA | – | – | 0.1 µM | -13.1%
PI4KB mouse | KiNativ profiling | mouse brain lysate | 0.1 µM, ATP site, with: ADP acyl phosphate probe | -12.9%
TLK1 and TLK2 (human) | probe labelling, KiNativ, item: Lys2 site peptide | PBMC lysate (human) | 1 µM, with: ATP acyl-phosphate probe | 2.4%
PIK3C2B human | KiNativ profiling | human PBMC lysate | concentration not given, ATP probe, ATP site | 7.9%
human PBMC | probe labeling, inhibitor, KiNativ profiling, item: DIkTLNIFLTK | cell lysate | concentration not given, LYS2 site, with: ATP acyl-phosphate probe | 2%

Block 3
Organism: Sarcocystis neurona
Effect on: parasite growth
Tested at: 10 µM
Time: 96 h
Notes: first screen
Compound | inhibition [%]
CS(=O)(=O)OCCCCOS(C)(=O)=O | -27.6
CO/N=C(\C(=O)N[C@@H]1C(=O)N2C(C(=O)O)=C(COC(C)=O)CS[C@H]12)c1csc(N)n1 | -19.5
Cc1ccc(O)c([C@H](CCN(C(C)C)C(C)C)c2ccccc2)c1 | 12.1
CN(C)CCCN1c2ccccc2CCc2ccc(Cl)cc21 | 18.6
CC(=O)OCC(=O)NCCCOc1cccc(CN2CCCCC2)c1 | 5.9
CC1COc2c(N3CCN(C)CC3)c(F)cc3c(=O)c(C(=O)O)cn1c23 (centres unmarked) | 19.7
NC12CC3CC(CC(C3)C1)C2 | -15
CC(=O)NS(=O)(=O)c1ccc(N)cc1 | -15.2

Block 4
SMILES: CC(=O)C1=C(C)N(c2cccc(C(F)(F)F)c2)C(=O)N[C@@H]1c1ccc(C#N)nc1
Effect on: cell-free assay
Method: competition with immobilised ligand
Tested at: 1 µM
target | remaining binding [%]
Testis-specific serine/threonine-protein kinase 3 (TSSK3, Homo sapiens, UniProt Q96PN8) | 96.2
Serine/threonine-protein kinase OSR1 (OXSR1, Homo sapiens, UniProt O95747) | 100
Atypical kinase COQ8B, mitochondrial (COQ8B, Homo sapiens, UniProt Q96D53) | 100
Ephrin type-B receptor 4 (EPHB4, Homo sapiens, UniProt P54760) | 100
Serine/threonine-protein kinase Nek1 (NEK1, Homo sapiens, UniProt Q96PY6) | 100
Mitogen-activated protein kinase 13 (MAPK13, Homo sapiens, UniProt O15264) | 74.6
Proto-oncogene tyrosine-protein kinase receptor Ret (RET, Homo sapiens, UniProt P07949, V804L) | 97.4
Mitogen-activated protein kinase kinase kinase kinase 4 (MAP4K4, Homo sapiens, UniProt O95819) | 99.3
Cyclin-dependent kinase 16 (CDK16, Homo sapiens, UniProt Q00536) | 100
Serine/threonine-protein kinase D1 (PRKD1, Homo sapiens, UniProt Q15139) | 95.7
Serine/threonine-protein kinase WNK2 (WNK2, Homo sapiens, UniProt Q9Y3S1) | 94
Serine/threonine-protein kinase Nek9 (NEK9, Homo sapiens, UniProt Q8TD19) | 100
Tyrosine-protein kinase receptor UFO (AXL, Homo sapiens, UniProt P30530) | 100
Ribosomal protein S6 kinase alpha-1, N-terminal kinase domain (RPS6KA1, Homo sapiens, UniProt Q15418) | 100
Receptor tyrosine-protein kinase erbB-2 (ERBB2, Homo sapiens, UniProt P04626) | 95.6
Mitogen-activated protein kinase kinase kinase 2 (MAP3K2, Homo sapiens, UniProt Q9Y2U5) | 100
Ephrin type-A receptor 3 (EPHA3, Homo sapiens, UniProt P29320) | 100
Serine/threonine-protein kinase SIK3 (SIK3, Homo sapiens, UniProt Q9Y2K2) | 100
Fibroblast growth factor receptor 3 (FGFR3, Homo sapiens, UniProt P22607, G697C) | 100
Rhodopsin kinase GRK7 (GRK7, Homo sapiens, UniProt Q8WTQ7) | 100
Serine/threonine-protein kinase PAK 6 (PAK6, Homo sapiens, UniProt Q9NQU5) | 92.7
Serine/threonine-protein kinase D2 (PRKD2, Homo sapiens, UniProt Q9BZL6) | 98.8
Serine/threonine-protein kinase mTOR (MTOR, Homo sapiens, UniProt P42345) | 92.5
Mitogen-activated protein kinase 9 (MAPK9, Homo sapiens, UniProt P45984) | 100
Phosphatidylinositol 4,5-bisphosphate 3-kinase catalytic subunit alpha isoform (PIK3CA, Homo sapiens, UniProt P42336) | 100

Block 5
Target: Calcium/calmodulin-dependent protein kinase type II subunit alpha (CAMK2A, Homo sapiens, UniProt Q9UQM7)
Sequence of UniProt Q9UQM7 (whole entry, looked up): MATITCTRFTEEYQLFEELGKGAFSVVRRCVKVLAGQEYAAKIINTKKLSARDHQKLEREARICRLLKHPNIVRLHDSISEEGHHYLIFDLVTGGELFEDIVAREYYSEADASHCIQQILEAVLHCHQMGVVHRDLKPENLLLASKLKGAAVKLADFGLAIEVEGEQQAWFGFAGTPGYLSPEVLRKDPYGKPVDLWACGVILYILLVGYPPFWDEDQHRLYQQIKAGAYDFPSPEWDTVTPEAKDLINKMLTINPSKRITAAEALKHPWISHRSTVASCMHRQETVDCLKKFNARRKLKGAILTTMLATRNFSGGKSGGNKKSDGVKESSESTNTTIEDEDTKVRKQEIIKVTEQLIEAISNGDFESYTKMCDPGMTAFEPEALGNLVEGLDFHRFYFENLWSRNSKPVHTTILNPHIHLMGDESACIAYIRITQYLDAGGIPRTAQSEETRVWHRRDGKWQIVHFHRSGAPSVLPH
Effect on: enzyme activity
Mode: inhibitor
Tested at: 10 µM
SMILES | inhibition
CCCCCCCC[C@H]1O[C@H]1CCCCCCCC(=O)O | -8%
CCCNCC(O)COc1ccccc1C(=O)CCc1ccccc1 (centres unmarked) | 5%
COc1cc(/C=C/C(=O)NCCc2c[nH]c3ccc(O)cc23)ccc1O | 16%
CN(C)C(=O)Oc1cccc([N+](C)(C)C)c1 | -2%
c1ccc(C2CN3CCSC3=N2)cc1 (centres unmarked) | 9%
CCOc1ccc(NC(=O)CC(C)O)cc1 (centres unmarked) | -2%
CCC(C)n1ncn(-c2ccc(N3CCN(c4ccc(OC[C@H]5CO[C@](Cn6cncn6)(c6ccc(Cl)cc6Cl)O5)cc4)CC3)cc2)c1=O (mixture of isomers) | -12%

A few entries again (block 3):
Compound | inhibition [%]
Cc1ccc(O)c([C@H](CCN(C(C)C)C(C)C)c2ccccc2)c1 | 12.1
CO/N=C(\C(=O)N[C@@H]1C(=O)N2C(C(=O)O)=C(COC(C)=O)CS[C@H]12)c1csc(N)n1 | -19.5
CC(=O)OCC(=O)NCCCOc1cccc(CN2CCCCC2)c1 | 5.9
NC12CC3CC(CC(C3)C1)C2 | -15
CC(=O)NS(=O)(=O)c1ccc(N)cc1 | -15.2
